Published values gathered from unrelated publications.
Protocols differ between the studies behind these lines.
Cell line: PC-3

| Compound | read-out | technique | time | setting | IC50 |
| --- | --- | --- | --- | --- | --- |
| CC[C@H](C)[C@H](NC(=O)[C@H](CCCCN)NC(=O)[C@H](CCCCN)NC(=O)[C@H](C)NC(=O)[C@@H](NC(=O)[C@H](C)NC(=O)[C@H](CC(C)C)NC(=O)[C@H](CC(C)C)NC(=O)[C@H](C)NC(=O)[C@H](CCCCN)NC(=O)[C@H](CC(C)C)NC(=O)[C@H](CC(N)=O)NC(=O)[C@@H](N)CC(C)C)C(C)C)C(=O)N[C@@H](CC(C)C)C(N)=O | cell growth or viability | MTT | – | – | 6.29 µM |
| COc1cc(/C=C(\C#N)C(=O)Nc2nnc(C(F)(F)F)s2)ccc1OC(=O)N1CCN(C(=O)CCCC(=O)NCCCC[C@@H]2NC(=O)[C@@H](Cc3ccc(O)cc3)NC(=O)[C@H](CC(=O)O)NC(=O)CNC(=O)[C@H](CCCNC(=N)N)NC2=O)CC1 | cytotoxicity | MTT | 48 h | – | > 100 µM |
| Cc1nn(-c2ccccc2)c(O)c1C(c1ccc([N+](=O)[O-])cc1)c1c(C)nn(-c2ccccc2)c1O | cell growth or viability | MTT | 48 h | – | 35.4 µM |
| COc1ccc2sc3c(c2c1)SCCNC3=O | cell growth or viability | MTT | – | – | 24 µM |
| Cc1nn(-c2ccccc2)c(O)c1C(c1ccc(F)cc1)c1c(C)nn(-c2ccccc2)c1O | cell growth or viability | MTT | 48 h | – | 35.9 µM |
| CC(C)C12OC1C1OC13C1(C)CCC4=C(COC4=O)C1CC1OC13C2OC(=O)CCCOC1OC(CO)C(O)C(O)C1O (stereo not drawn) | cell growth | [3H]-thymidine incorporation | 48 h | 1% oxygen hypoxia | 0.081 µM |
| CCCCCCCCc1ccc(C(=O)N[C@@H](CO)C(=O)N[C@H](C(=O)N[C@@H](C)C(=O)N[C@H](C(N)=O)[C@@H](C)CC)[C@@H](C)OP(=O)(O)O)cc1 | cell growth or viability | MTT | 72 h | – | 41.5 µM |
| CCc1c2c(nc3ccc(O)cc13)-c1cc3c(c(=O)n1C2)COC(=O)[C@@]3(CC)OC(=O)[C@H](CC(C)C)NC(=O)[C@H](CCC(N)=O)NC(=O)[C@H](CC(C)C)NC(=O)[C@H](CCCCN)NC(=O)[C@H](CO)NC(=O)[C@H](CO)NC(=O)[C@H](Cc1c[nH]cn1)NC(=O)COCCOCCOCCNC(=O)CCCCC(=O)N1Cc2ccccc2-c2c(nnn2CCOCCOCCOCCOCCC(=O)N[C@@H](Cc2c[nH]cn2)C(=O)N[C@@H](CO)C(=O)N[C@@H](CO)C(=O)N[C@@H](CCCCN)C(=O)N[C@@H](CC(C)C)C(=O)N[C@@H](CCC(N)=O)C(=O)N[C@@H](CC(C)C)C(=O)O[C@@H](C(=O)O[C@H]2C[C@@]3(O)[C@@H](OC(=O)c4ccccc4)[C@@H]4[C@]5(OC(C)=O)CO[C@@H]5C[C@H](OC)[C@@]4(C)C(=O)[C@H](OC)C(=C2C)C3(C)C)[C@@H](NC(=O)OC(C)(C)C)c2ccccc2)-c2ccccc21 | cell growth or viability | XTT | 72 h | – | 0.00635 µM |
| O=C(C[P+]([Au-][Cl])(c1ccccc1)c1ccccc1)[O][Ti+2][O]C(=O)C[P+]([Au-][Cl])(c1ccccc1)c1ccccc1.c1cc[cH-]c1.c1cc[cH-]c1 | cell viability | XTT | 24 h | – | 51.7 µM |
| Cc1nn(-c2ccccc2)c(O)c1C(c1cccs1)c1c(C)nn(-c2ccccc2)c1O | cell growth or viability | MTT | 48 h | – | > 40 µM |
| CCCCCCCCCc1ccc(C(=O)N[C@@H](CO)C(=O)N[C@H](C(=O)N[C@@H](C)C(=O)N[C@H](C(N)=O)[C@@H](C)CC)[C@@H](C)OP(=O)(O)O)cc1 | cell growth or viability | MTT | 72 h | – | 27 µM |
| CCc1ccc(C(c2c(C)nn(-c3ccccc3)c2O)c2c(C)nn(-c3ccccc3)c2O)cc1 | cell growth or viability | MTT | 48 h | – | 30.6 µM |
| C1CCN(C2CCNCC2)CC1.CCCC(CCC)C(=O)[O][Pt]([OH])([Cl])[Cl].CCCCN | cell growth or viability | – | – | – | 16.8 µM |
| CC(C)C[C@H](NC(=O)[C@H](C)NC(=O)[C@H](C)NC(=O)[C@H](CCC(N)=O)NC(=O)[C@H](C)NC(=O)[C@H](CO)NC(=O)[C@H](CC(C)C)NC(=O)[C@H](C)NC(=O)[C@@H](NC(=O)[C@H](C)NC(=O)[C@H](Cc1ccc(O)cc1)NC(=O)[C@H](CO)NC(=O)[C@H](CCCCN)NC(=O)[C@H](C)NC(=O)[C@H](Cc1ccccc1)NC(=O)[C@H](CCCCN)NC(=O)[C@H](C)NC(=O)[C@H](Cc1ccccc1)NC(=O)[C@H](CCCCN)NC(=O)[C@H](CCCCN)NC(=O)[C@H](C)NC(=O)[C@H](Cc1ccccc1)NC(=O)[C@H](CCCCN)NC(=O)[C@H](C)NC(=O)[C@H](Cc1ccccc1)NC(=O)[C@H](CCCCN)NC(=O)[C@H](CCCCN)NC(=O)[C@H](C)NC(=O)[C@H](Cc1ccccc1)NC(=O)[C@H](CCCCN)NC(=O)[C@H](C)NC(=O)[C@H](Cc1ccccc1)NC(=O)[C@@H](N)CCCCN)C(C)C)C(=O)N[C@@H](C)C(=O)N[C@@H](CCCNC(=N)N)C(=O)N[C@@H](CCCNC(=N)N)C(=O)O | viable cell number | MTS | 6 h | – | 5.5 µM |
| Cc1nn(-c2ccccc2)c(O)c1C(c1ccc(N(C)C)cc1)c1c(C)nn(-c2ccccc2)c1O | cell growth or viability | MTT | 48 h | – | > 40 µM |

Some of these lines once more:
| Compound | read-out | technique | time | setting | IC50 |
| --- | --- | --- | --- | --- | --- |
| Cc1nn(-c2ccccc2)c(O)c1C(c1ccc(N(C)C)cc1)c1c(C)nn(-c2ccccc2)c1O | cell growth or viability | MTT | 48 h | – | > 40 µM |
